Measured values pooled from the literature.
Protocols differ between the studies behind these lines. Numbers after ± are the reported error.

CNc1nc(Nc2ccc(-n3cnc(C)n3)c(OC)c2)nc2c1CC[C@H]2c1ccc(F)cc1 — AUC(0-t) (healthy humans, both sexes, plasma; oral, 900 mg single dose): 21.9 µg·h/mL
CCCCC1(CCCC)CN(c2ccccc2)c2cc(SC)c(OCC(=O)N[C@@H](C(=O)NCC(=O)O)c3ccccc3)cc2S(=O)(=O)C1 — AUC(0-t) (human, plasma; oral, 2.5 mg, no breakfast): 0.00166 µg·h/mL
NCCCS(=O)(=O)O — AUC(0-t) (human, plasma; oral, 100 mg modified-release tablet, single dose): 2.35 ± 0.747 µg·h/mL
Cc1ccc(NC(=O)c2ccc(CN3CCN(C)CC3)cc2)cc1Nc1nccc(-c2cncc(-c3oncc3C)c2)n1 — AUC(0-t) (older healthy human adults, plasma; oral, 325 mg single dose, fed, mean): 243 µg·h/mL
O=C(O)CNC(=O)c1c(O)c2ccccc2n(OCC2CC2)c1=O — AUC(0-t) (LC-MS/MS; human, blood; oral, 150 mg multiple doses): 28.8 ± 13.5 µg·h/mL
COc1c(OCCCN2CCOCC2)ccc2c1N=C(NC(=O)c1cnc(N)nc1)N1CCN=C21 — AUC(0-t) (human cancer patients, plasma; intravenous, 0.4 mg/kg weekly, cycle 1 day 1, compound alone, geometric mean): 0.432 µg·h/mL
CCCS(=O)(=O)N[C@H]1C[C@@H](N(C)c2ncnc3[nH]ccc23)C1 — AUC(0-t) (humans, moderate hepatic impairment; oral, 200 mg single): 8.55 µg·h/mL
CCc1cc(/C(C)=N/OCc2ccc(C3CCCCC3)c(C(F)(F)F)c2)ccc1CN1CC(C(=O)O)C1 — AUC(0-t) (healthy human, CYP2C9*1/*1, plasma; oral, 4 mg single dose, geometric mean, added: fluconazole steady state): 2.16 µg·h/mL
Cc1nc2cccc(N)c2c(=O)n1C1CCC(=O)NC1=O (stereo not shown) — AUC(0-t) (healthy adult human, plasma; oral, 3 mg, geometric mean, added: rifampin 600 mg once daily): 0.43 µg·h/mL
Cc1cc(-c2nnc(N)nc2-c2ccc(F)cc2)cc(Cl)n1 — AUC(0-t) (human patients, plasma; oral, 100 mg nanosuspension, single dose, arithmetic mean): 4.29 µg·h/mL
O=C(Nc1c(Cl)cncc1Cl)c1ccc(OC(F)F)c(OCC2CC2)c1 — AUC(0-t) (human adolescents, 12-17 years, plasma; topical, 0.3% cream once daily, day 15): 0.0251 µg·h/mL
C=CC(=O)Nc1cc(Nc2ncc(C(=O)OC(C)C)c(-c3cn(C)c4ccccc34)n2)c(OC)cc1N(C)CCN(C)C — AUC(0-t) (human, fasted; oral, 20 mg single dose, arithmetic mean): 0.06 µg·h/mL
C=CC(=O)N1CCC([C@@H]2CCNc3c(C(N)=O)c(-c4ccc(Oc5ccccc5)cc4)nn32)CC1 — AUC(0-t) (human; oral, 480 mg single dose, mean): 2.57 µg·h/mL
N#C[C@@H]1C[C@@H]2C[C@@H]2N1C(=O)[C@@H](N)C12CC3CC(CC(O)(C3)C1)C2 — AUC(0-t) (healthy human subjects, plasma; oral, 10 mg, day 10, geometric mean, added: diltiazem extended-release 360 mg): 0.325 µg·h/mL
CNC(=O)c1c(C)oc2cc(Oc3ncnc4cc(OC)c(OC)cc34)ccc12 — AUC(0-t) (human, plasma; oral, 5 mg, fasted, added: rabeprazole 40 mg): 5.28 µg·h/mL
CC(=O)c1c(C)c2cnc(Nc3ccc(N4CCNCC4)cn3)nc2n(C2CCCC2)c1=O — AUC(0-t) (human; oral, 75 mg/m^2 single dose, day 1): 1.87 µg·h/mL
CN(Cc1nc2c(N)nc(N)nc2[nH]c1=O)c1ccc(C(=O)N[C@@H](CCC(=O)O)C(=O)O)cc1 — AUC(0-t) (human, plasma; oral, 15 mg methotrexate, day 1, alone, arithmetic mean): 1.33 µg·h/mL
CN(C)Cc1c(C(=O)NCCOc2ccc(C(=O)NO)cc2)oc2ccccc12 — AUC(0-t) (human, plasma; oral, 60 mg single dose): 0.225 ± 0.0472 µg·h/mL
CCS(=O)(=O)N1CC(CC#N)(n2cc(-c3ncnc4[nH]ccc34)cn2)C1 — AUC(0-t) (healthy Chinese human subjects, plasma; oral, 2 mg, single dose, mean): 0.134 µg·h/mL
Cc1cc(C)c2c(c1)[C@@H](N(Cc1cc(C(F)(F)F)cc(C(F)(F)F)c1)c1nnn(C)n1)CCCN2C[C@H]1CC[C@H](C(=O)O)CC1 — AUC(0-t) (human, plasma; oral, 10 mg once daily, steady state, geometric mean): 0.572 µg·h/mL
CCCC[C@H](NC(C)=O)C(=O)N[C@H]1CCC(=O)NC[C@@H](C(=O)N[C@@H](Cc2c[nH]c3ccccc23)C(N)=O)NC(=O)[C@H](CCCNC(=N)N)NC(=O)[C@@H](Cc2ccccc2)NC(=O)[C@H](Cc2c[nH]cn2)NC1=O — AUC(0-t) (healthy human, both sexes, plasma; subcutaneous, 3.0 mg once daily, day 1, geometric mean): 0.152 µg·h/mL
COc1cc(Nc2ncc3c(n2)-c2ccc(Cl)cc2C(c2c(F)cccc2OC)=NC3)ccc1C(=O)O — AUC(0-t) (human, plasma; oral, 50 mg single, fasted): 21.2 µM·h
COc1cccc(-c2ccc(NC(=O)C3=C(C(=O)O)CCC3)c(F)c2)c1 — AUC(0-t) (human, male, fasted, plasma; oral, 40 mg, single dose, geometric mean): 181 µg·h/mL
CCOc1c([C@H](C)n2nc(C)c3c(N)ncnc32)cc(Cl)c(F)c1[C@@H]1CNC(=O)C1 — AUC(0-t) (healthy human, fasted; oral, 10 mg): 7.31 ± 0.792 µM·h
CCOc1ccc(Cc2cc([C@]34OC[C@](CO)(O3)[C@@H](O)[C@H](O)[C@H]4O)ccc2Cl)cc1 — AUC(0-t) (healthy human, plasma; oral, 15 mg, 20% glucose solution, added: glimepiride 1 mg): 1.28 µg·h/mL
CNC(=O)c1ccc(-c2cnc3ncc(Cc4ccc5ncccc5c4)n3n2)cc1F — AUC(0-t) (healthy human subjects, plasma; oral, 400 mg, adjusted geometric mean, alone): 11.6 µg·h/mL
CC[C@H](C)[C@@H]1NC(=O)[C@H](CCCNC(=N)N)NC(=O)[C@H](CC(=O)O)NC(=O)[C@H](CC(C)C)NC(=O)[C@H](CCCCN)NC(=O)[C@H](CC(C)C)NC(=O)CNC(=O)[C@H](Cc2ccccc2)NC(=O)[C@@H](NC(=O)CNC(=O)[C@H](CCCCN)NC(=O)[C@H](CO)NC(=O)[C@H](CC(C)C)NC(=O)CNC(=O)[C@H](CCCCN)NC(=O)[C@H](CCCCN)NC(=O)[C@H](CC(N)=O)NC(=O)[C@H](C)NC(=O)CNC(=O)[C@H](CCCCN)NC(=O)[C@H](Cc2ccc(O)cc2)NC(=O)[C@H](CCCCN)NC(=O)[C@H](CCCNC(=N)N)NC(=O)[C@H](C)NC(=O)[C@H](CC(N)=O)NC(=O)[C@@H]2CCCN2C(=O)[C@H](Cc2c[nH]cn2)NC(=O)[C@H](CCC(=O)O)NC(=O)[C@H](CCC(N)=O)NC(=O)CNC(=O)[C@@H]2CCCN2)CSSC[C@@H](C(=O)O)NC(=O)CNC(=O)[C@H](CC(C)C)NC(=O)CNC(=O)[C@H](CO)NC(=O)[C@H](CCSC)NC(=O)[C@H](CO)NC(=O)CNC1=O — AUC(0-t) (ELISA; human, plasma; subcutaneous, 2.5 µg/kg single dose, day 1): 2.28e-05 µg·h/mL
CC(C)[C@@H](CS(=O)(=O)C(C)C)N1C(=O)[C@@](C)(CC(=O)O)C[C@H](c2cccc(Cl)c2)[C@H]1c1ccc(Cl)cc1 — AUC(0-t) (human, plasma; oral, 60 mg, new tablet, fed, geometric LS mean): 2.33 µg·h/mL
O=C(NCCN1CCCC1)c1cc(-c2ccc(CN3CCOCC3)cc2)nc2ccc(F)cc12 — AUC(0-t) (LC-MS/MS; human, whole blood; oral, 200 mg, single dose, geometric mean): 2.63 µg·h/mL
C=C(C)[C@@H]1CC[C@]2(NCCN3CCS(=O)(=O)CC3)CC[C@]3(C)[C@H](CC[C@@H]4[C@@]5(C)CC=C(C6=CC[C@@](CF)(C(=O)O)CC6)C(C)(C)[C@@H]5CC[C@]43C)[C@@H]12 — AUC(0-t) (healthy human volunteers; oral, 200 mg, capsule, moderate-fat meal, arithmetic mean): 35.9 µg·h/mL
O=C(O)CC[C@H]1CC[C@@](c2cc(F)ccc2F)(S(=O)(=O)c2ccc(Cl)cc2)CC1 — AUC(0-t) (human patients, plasma; oral, 1400 mg/m2/week): 1320 to 2400 µg·h/mL
CCNCc1cc(Nc2ccnc3cc(Cl)ccc23)ccc1O — AUC(0-t) (HPLC-EC; human, fasting, both sexes, plasma; oral, 200 mg artesunate + 612 mg amodiaquine, non-fixed loose combination): 40.3 ± 19.8 µg·h/mL
CC(C)NC[C@@H](C(=O)N1CCN(c2ncnc3c2[C@H](C)C[C@H]3O)CC1)c1ccc(Cl)cc1 — AUC(0-t) (human, Healthy hepatic function, plasma; oral, 100 mg single dose, NCI classification, geometric mean): 0.295 µg·h/mL
CN(Cc1cnc2nc(N)nc(N)c2n1)c1ccc(C(=O)N[C@@H](CCC(=O)O)C(=O)O)cc1 — AUC(0-t) (human, plasma; oral, 10 mg, added: apremilast 30 mg twice daily): 1.3 µg·h/mL
CC(C)(/C=C(\C#N)C(=O)N1CCC[C@@H](n2nc(-c3ccc(Oc4ccccc4)cc3F)c3c(N)ncnc32)C1)N1CCN(C2COC2)CC1 — AUC(0-t) (human, plasma; oral, 100 mg single dose, median): 0.051 µg·h/mL
NS(=O)(=O)OC[C@@H]1C[C@@H](n2ccc3c(N[C@H]4CCc5ccccc54)ncnc32)C[C@@H]1O — AUC(0-t) (human; iv, 8 mg/m^2, day 8, geometric LS mean, added: fluconazole): 0.491 µg·h/mL
C=CC(=O)N1C[C@H](Nc2ncnc3[nH]ccc23)CC[C@@H]1C — AUC(0-t) (adjusted geometric mean; human, plasma; oral, 50 mg single dose, without rifampicin): 0.448 µg·h/mL
Cc1[nH]c(/C=C2\C(=O)Nc3ccccc32)c(C)c1CCC(=O)O — AUC(0-t) (human patients; oral, 200 mg/m^2 twice daily, after meal, dose 55): 28.7 ± 1.6 µg·h/mL
CN(Cc1cnc2nc(N)nc(N)c2n1)c1ccc(C(=O)N[C@@H](CCC(=O)O)C(=O)O)cc1 — AUC(0-t) (human; oral, dose not given, day 8, added: isavuconazole): 0.587 µg·h/mL
C#C[C@]1(O)CC[C@H]2[C@@H]3CCc4cc(O)ccc4[C@H]3CC[C@@]21C — AUC(0-t) (human female, plasma; oral, 35 µg, day 1, added: norethindrone 1 mg): 0.001 µg·h/mL
O=c1[nH]c(=O)c(Cc2cccc(C(F)(F)F)c2)c([C@H]2CC[C@H](c3ccccc3)CC2)[nH]1 — AUC(0-t) (human, fasted, plasma; oral, 100 mg single dose, geometric mean): 1.09 µg·h/mL
CN[C@@H]1COc2c(S(=O)(=O)NC(=O)Nc3c4c(cc5c3CCC5)CCC4)cnn2C1 — AUC(0-t) (human; oral, 600 mg, fasted, geometric LS mean): 170 µg·h/mL
COc1cc2c(cc1OC)CN(CCc1ccc(NC(=O)c3cc(OC)c(OC)cc3NC(=O)c3cnc4ccccc4c3)cc1)CC2 — AUC(0-t) (LC-MS; human, venous plasma; intravenous infusion, 2 mg/kg, 4 h): 2.95 µg·h/mL

Excerpt of the above:
CCc1cc(/C(C)=N/OCc2ccc(C3CCCCC3)c(C(F)(F)F)c2)ccc1CN1CC(C(=O)O)C1 — AUC(0-t) (healthy human, CYP2C9*1/*1, plasma; oral, 4 mg single dose, geometric mean, added: fluconazole steady state): 2.16 µg·h/mL
C#C[C@]1(O)CC[C@H]2[C@@H]3CCc4cc(O)ccc4[C@H]3CC[C@@]21C — AUC(0-t) (human female, plasma; oral, 35 µg, day 1, added: norethindrone 1 mg): 0.001 µg·h/mL
COc1cccc(-c2ccc(NC(=O)C3=C(C(=O)O)CCC3)c(F)c2)c1 — AUC(0-t) (human, male, fasted, plasma; oral, 40 mg, single dose, geometric mean): 181 µg·h/mL
CC[C@H](C)[C@@H]1NC(=O)[C@H](CCCNC(=N)N)NC(=O)[C@H](CC(=O)O)NC(=O)[C@H](CC(C)C)NC(=O)[C@H](CCCCN)NC(=O)[C@H](CC(C)C)NC(=O)CNC(=O)[C@H](Cc2ccccc2)NC(=O)[C@@H](NC(=O)CNC(=O)[C@H](CCCCN)NC(=O)[C@H](CO)NC(=O)[C@H](CC(C)C)NC(=O)CNC(=O)[C@H](CCCCN)NC(=O)[C@H](CCCCN)NC(=O)[C@H](CC(N)=O)NC(=O)[C@H](C)NC(=O)CNC(=O)[C@H](CCCCN)NC(=O)[C@H](Cc2ccc(O)cc2)NC(=O)[C@H](CCCCN)NC(=O)[C@H](CCCNC(=N)N)NC(=O)[C@H](C)NC(=O)[C@H](CC(N)=O)NC(=O)[C@@H]2CCCN2C(=O)[C@H](Cc2c[nH]cn2)NC(=O)[C@H](CCC(=O)O)NC(=O)[C@H](CCC(N)=O)NC(=O)CNC(=O)[C@@H]2CCCN2)CSSC[C@@H](C(=O)O)NC(=O)CNC(=O)[C@H](CC(C)C)NC(=O)CNC(=O)[C@H](CO)NC(=O)[C@H](CCSC)NC(=O)[C@H](CO)NC(=O)CNC1=O — AUC(0-t) (ELISA; human, plasma; subcutaneous, 2.5 µg/kg single dose, day 1): 2.28e-05 µg·h/mL
CNc1nc(Nc2ccc(-n3cnc(C)n3)c(OC)c2)nc2c1CC[C@H]2c1ccc(F)cc1 — AUC(0-t) (healthy humans, both sexes, plasma; oral, 900 mg single dose): 21.9 µg·h/mL
